Measurements collected from several papers.
Protocols differ between the studies behind these lines. ± marks the error that the study gave.
Cell line: HeLa

Structure (SMILES) = CC(=O)[O-].Nc1ccc(C([O-])=NN=Cc2ccc(OCC(=O)Nc3ccc(Cl)cc3)cc2)cc1.[Ni+2]; test = cytotoxicity, MTT; setting = 24 h; measurement = IC50; result = 24.2 ± 2.2 µM
Structure (SMILES) = O=c1c(Br)c2oc3c(CN(Cc4ccccn4)Cc4cnccn4)c(O)ccc3nc-2c2ccccc12; test = colocalisation with ER-Tracker; measurement = Pearson's coefficient; result = 0.652
Structure (SMILES) = COc1ccc(Cn2c(=O)n(O)c(=O)c3ccccc32)cc1; test = cytotoxicity, colony formation; system = DMEM, foetal calf serum; measurement = EC50; result = 6 µM
Structure (SMILES) = CC(C)CCCCCCCCCCCCc1cc(O)cc(O)c1; how to read = no cytotoxicity up to value; measurement = highest non-cytotoxic concentration; result = > 200 µM
Structure (SMILES) = CC[C@H](C)[C@H](NC(=O)[C@H](Cc1c[nH]c2ccccc12)NC(=O)[C@H](CCCNC(=O)c1ccc2c(c1)C(=O)OC21c2ccc(O)cc2Oc2cc(O)ccc21)NC(=O)CNC(=O)[C@H]1CCCN1C(=O)[C@@H](NC(=O)[C@H](CCCNC(=N)N)NC(=O)[C@@H](NC(=O)[C@H](Cc1c[nH]c2ccccc12)NC(=O)[C@H](CCCNC(=N)N)NC(C)=O)C(C)C)C(C)C)C(=O)N[C@@H](CCCNC(=N)N)C(=O)N[C@@H](CCC(N)=O)C(=O)N[C@@H](CC(C)C)C(=O)N[C@@H](CCCNC(=N)N)C(=O)NCC(=O)NCC(N)=O; test = peptide uptake, fluorescence microscopy; setting = range over 80 to 160 µM, 90 min, 37 °C; measurement = Hill coefficient; result = 6.26
Structure (SMILES) = CN1/C(=C/C=C/c2cc(-c3ccccc3)cc(-c3ccccc3)[o+]2)C(C)(C)c2ccccc21; test = cell growth or viability; setting = 72 h; measurement = CC50; result = 0.56 µg/mL
Structure (SMILES) = N[C@H]1C[C@@H]1c1ccc(-c2cccc(O)c2)cc1; test = MTT; setting = 50 µM, 12 h; measurement = cytotoxicity; result = not toxic
Structure (SMILES) = O=C(CCC(=O)NCCS(=O)(=O)O)NCCNC(=O)[C@@H](Cc1ccccc1)NC(=O)[C@@H](Cc1ccccc1)NC(=O)CCNc1ccc([N+](=O)[O-])c2nonc12; setting = 200 µM, 24 h; measurement = decrease per PBS wash; result = ~25%
Structure (SMILES) = CC(=O)N[C@@H](CC(C)C)C(=O)N[C@H](C(=O)N[C@@H](Cc1ccccc1)C(=O)N[C@H]1CSCc2ccc(cn2)-c2ccc(nc2)CSC[C@@H](C(=O)N[C@@H](CO)C(N)=O)NC(=O)[C@H](CC(C)C)NC(=O)[C@H](CCCNC(=N)N)NC(=O)[C@H](C)NC(=O)[C@H](Cc2c[nH]c3ccccc23)NC(=O)[C@H](Cc2ccc(O)cc2)NC(=O)[C@H](CCCNC(=N)N)NC1=O)[C@@H](C)O; test = CellTiter-Glo; setting = 10 µM; measurement = viability decrease; result = 50%
Structure (SMILES) = O=C(CCC(=O)OCCNC(=O)[C@@H](Cc1ccccc1)NC(=O)[C@@H](Cc1ccccc1)NC(=O)CCNc1ccc([N+](=O)[O-])c2nonc12)NCCS(=O)(=O)O; setting = 50 µM, 24 h; measurement = intracellular over medium concentration; result = ~3 fold
Structure (SMILES) = COC(=O)c1cc(O)c2ccccc2c1O; setting = 20 µM; measurement = cytotoxicity; result = not toxic

A few entries again:
Structure (SMILES) = CC[C@H](C)[C@H](NC(=O)[C@H](Cc1c[nH]c2ccccc12)NC(=O)[C@H](CCCNC(=O)c1ccc2c(c1)C(=O)OC21c2ccc(O)cc2Oc2cc(O)ccc21)NC(=O)CNC(=O)[C@H]1CCCN1C(=O)[C@@H](NC(=O)[C@H](CCCNC(=N)N)NC(=O)[C@@H](NC(=O)[C@H](Cc1c[nH]c2ccccc12)NC(=O)[C@H](CCCNC(=N)N)NC(C)=O)C(C)C)C(C)C)C(=O)N[C@@H](CCCNC(=N)N)C(=O)N[C@@H](CCC(N)=O)C(=O)N[C@@H](CC(C)C)C(=O)N[C@@H](CCCNC(=N)N)C(=O)NCC(=O)NCC(N)=O; test = peptide uptake, fluorescence microscopy; setting = range over 80 to 160 µM, 90 min, 37 °C; measurement = Hill coefficient; result = 6.26
Structure (SMILES) = CN1/C(=C/C=C/c2cc(-c3ccccc3)cc(-c3ccccc3)[o+]2)C(C)(C)c2ccccc21; test = cell growth or viability; setting = 72 h; measurement = CC50; result = 0.56 µg/mL
